Experimental data collected from several papers.
Each line is one published result; not all experiments were run side by side. “And” joins repeats or separate records; there may be more than shown. Numbers after ± are the reported error.

Structure (SMILES)	assay	test system	setting	how to read	endpoint	value
C=CC(=O)Nc1cc(Nc2nccc(Nc3cc(Cl)c(F)cc3C(C)(C)O)n2)c(OC)cc1N1CC[C@@H](N(C)C)C1	two-compartment PK model	mouse	dose not given	–	central volume of distribution	2.2 L
CCCC1CCC(c2ccc(-c3ccc(F)c(F)c3)cc2)CC1 (stereo not shown)	–	human mother-newborn pairs, female, maternal serum	–	–	mean serum concentration	0.59 ng/mL
CN1CCN(c2cccc3c2CCN(C(=O)/C=C/c2c(-n4cnnn4)ccc(Cl)c2F)[C@@H]3C(=O)Nc2ccc(C(=O)O)cc2)C(=O)C1	–	healthy human subjects	intravenous infusion, 1 mg/h, 5 days, study	–	upper respiratory infection subjects	0%
Cc1cc(-c2nccc3c2ccn3CC(=O)Nc2ccc(-c3cnccn3)cn2)ccn1	–	human	5 mg once daily, multiple ascending dose	–	subjects with infections	12.5%
COc1ccc2c(=O)n(C)c(-c3ccccc3)nc2c1	–	Sprague-Dawley rat, male, spleen	oral, 30 mg/kg, 2 h	baseline: spleen over plasma	tissue/plasma ratio	1
CC(C)(C(=O)N1CCOc2c(C#N)cncc2C1)C(F)F	item: Psychiatric disorders	human	oral, 15 mg twice daily, 14 days, multiple ascending dose	–	subjects with adverse event	12.5%
CCN1CCN(Cc2ccc(NC(=O)c3ccc(C)c(NC(=O)c4cncc(-c5cccs5)c4)c3)cc2C(F)(F)F)CC1	LC-MS/MS	C57BL/6 mouse, plasma	intraperitoneal, 10 mg/kg single dose, 6 h	–	mean plasma concentration	42 ng/mL
C=CCN1CC(=O)N2[C@@H](Cc3ccc(O)cc3F)C(=O)N(Cc3cccc(N4CC(N5CCN(CC)CC5)C4)n3)C[C@@H]2N1C(=O)NCc1ccccc1	item: Malaise	advanced solid tumour patients	all doses, expansion part, grade ≥3	–	treatment-related adverse events	0%
CN(C(=O)n1cnc(-c2ccc[n+]([O-])c2)c1)[C@H]1CC[C@H](O)CC1	–	rat, cortex	oral, 10 mg/kg daily for 5 days, 72 h	–	tissue concentration	8.7 ± 0.3 ng/g
N#Cc1ccc2c(c1)[C@H]1CCCN(C(=O)c3ccc4[nH]cnc4c3)[C@H]1C2	–	human, female	80 mg, day 15	–	DHEA-S level	10.5 µmol/L
COc1ncc(-c2nc3c(n2C(C)C)[C@H](c2ccc(Cl)cc2)N(c2cc(Cl)cn(C)c2=O)C3=O)c(OC)n1	–	human patients, plasma	oral, 25 mg, high-dose arm, cycle 1 day 1	–	AUC(0-t) geometric mean	1770 ng·h/mL
CNC(=O)c1cccc(-c2ccc([C@@H](O)[C@H]3O[C@H](CO)[C@@H](O)[C@H](O)[C@@H]3O)c(C)c2)c1	–	male Sprague-Dawley rat, plasma	intravenous, 3 mg/kg, group mean	–	C0	4920 ng/mL
COc1cccc(OC)c1-c1cc(C(=O)NC2(C(=O)O)C3CC4CC(C3)CC2C4)nn1-c1ccc(C(=O)N(C)CCCN(C)CCCN(C)C(=O)CN2CCN(CC(=O)[O-])CCN(CC(=O)[O-])CCN(CC(=O)[O-])CC2)cc1C(C)C.[177Lu+3] (stereo not shown)	–	SCID mouse, HT-29 xenograft	iv, 4 h	–	spleen uptake	0.06 ± 0.03 % ID
CCN(CCO)CCCC(C)Nc1ccnc2cc(Cl)ccc12 (stereo not shown)	–	human patient	400 mg, steady state	–	CLss/F	11.2 L/h and 13.2 L/h and 14.6 L/h and 11.8 L/h and 10.2 L/h
CC/C(=C(\c1ccccc1)c1ccc(OCCN(C)C)cc1)c1ccccc1	–	male Hartley guinea pigs, anaesthetized	intravenous, 3 mg/kg over 10 min, after infusion	–	mean blood pressure	35 ± 0.2 mmHg
COc1ccc(C[C@@H](C)[C@@H](C)Cc2ccc(OC)c(OC)c2)cc1OC	–	beagle dog female, plasma	oral, 100 mg/kg/day, day 28, median	–	Tmax	1 h
CNC(=O)c1cc(Oc2ccc(NC(=O)Nc3cc(C(C)(C)C)nn3-c3ccc4ncccc4c3)c(F)c2)ccn1	item: worst grade 3	human	oral, dose not given, cycles 1 and 2, High AUC(0-4 h) subgroup	–	patients with visual abnormality AE	6%
Cc1cc(C(=O)NC(C)(C)COc2cccc3c2C(N)=NS(=O)(=O)N3)cc(C)n1	LC-MS metabolite profiling	Sprague-Dawley rat, both sexes, plasma	oral, 100 mg/kg of parent drug, 4 (unit not given)	higher = more metabolite	plasma peak area	391000 a.u.
Cc1noc2c1-c1ccccc1C(c1ccc(Cl)cc1)=N[C@H]2CC(N)=O	–	Crl:CD1(ICR) mice, female, brain	intravenous, 5 µmol/kg	–	AUC(0-last)	4.16 µM·h
O=C(CS(=O)(=O)O)Nc1ccc(N2CCOCC2)c(Br)c1	–	CD-1 mice, whole blood	intravenous, 2 mg/kg	–	C0	8.09 µM
Cl.[2H]C([2H])([2H])CC(=O)c1cnc(NC(=O)C2CC2)cc1Nc1cccc(-c2ncn(C([2H])([2H])[2H])n2)c1OC	geometric mean	human	oral, 17.5 mg single dose, fasted, liquid	–	half-life	7.85 h
CC(=O)N(C)[C@H]1CCN(C(=O)c2cnc3c(c2)C[C@](C)(c2ccc(F)cc2)N3)C1	–	human	dose not given	–	lactate dehydrogenase	575 U/L
CNCCOC12CC3(C)CC(C)(CC(Cn4ncc(-c5ccc(N6CCc7cccc(C(=O)Nc8nc9ccccc9s8)c7C6)nc5C(=O)O)c4C)(C3)C1)C2	–	beagle dog, male, anaesthetised	intravenous bolus, 0.03 mg/kg, 60 min	baseline: baseline	mean arterial pressure change	-2%
CCN(CC)/C(N)=N\c1ccc(NC(=O)c2ccc(C(=O)Nc3ccc(/N=C(\N)N(CC)CC)cc3)cc2)cc1	–	sheep erythrocytes	1 h, pH 7.5	–	maximum haemolysis	1.9%
Cc1c(-c2ccc(N3CCc4cccc(C(=O)Nc5nc6ccccc6s5)c4C3)nc2C(=O)O)cnn1CC12CC3(C)CC(C)(C1)CC(OCCNCC[C@H](O)CO)(C3)C2	–	anaesthetized male beagle dog	iv infusion, 0.3 mg/kg/min, 15 min	–	plasma concentration	133 ng/mL and 57.3 ng/mL
C[C@@H]1CN(c2c(F)c(N)c3c(=O)c(C(=O)O)cn(C4CC4)c3c2F)C[C@H](C)N1	–	male Hartley guinea pigs, anaesthetized	intravenous, 3 mg/kg over 10 min, after infusion	–	mean blood pressure	33 ± 0.1 mmHg
CO[C@H]1C[C@@H]2CC[C@@H](C)[C@@](O)(O2)C(=O)C(=O)N2CCCC[C@H]2C(=O)O[C@H]([C@H](C)C[C@@H]2CC[C@@H](OC(=O)NCCOCCOCCOCCOCCOCCOCCOCCOCCC(=O)N3CCc4cc(Cn5nc(-c6ccc7oc(N)nc7c6)c6c(N)ncnc65)ccc4C3)[C@H](OC)C2)C[C@@H](O)[C@H](C)/C=C(\C)[C@@H](O)[C@@H](OC)C(=O)[C@H](C)C[C@H](C)/C=C/C=C/C=C/1C	–	mice, plasma	intraperitoneal, 1 mg/kg, weekly dosing	–	unbound Cmax	0.002 to 0.008 µM
CNC(=O)c1ccc(-c2cnc3ncc(Cc4ccc5ncccc5c4)n3n2)cc1F	item: Dyspepsia, all grades	gastric cancer patients	oral, 600 mg twice daily, expansion cohort, any causality	–	patients with adverse event	11%

Structure (SMILES)	assay	test system	setting	how to read	endpoint	value
CCC(CC)C(=O)Oc1cccc(C(O)CCN)c1.O=CO (stereo not shown)	scotopic ERG	BALB/cJ mice	intraperitoneal, 10 mg/kg, 8 h dark adaptation, added: 10,000 lx photobleach, 10 min	–	ERG b-wave amplitude	311 µV and 371 µV and 297 µV and 344 µV and 316 µV and 290 µV
Cc1cc(Nc2cc3ncccc3c(N[C@@H]3C[C@H]4CC[C@@H](C3)N4CCC#N)n2)n[nH]1	–	healthy human subjects	oral, 30 mg, 2 weeks, single ascending dose	–	pruritus incidence	0%
O=C(O)c1cccnc1Nc1cccc(C(F)(F)F)c1	–	–	–	–	pKa (basic)	2.2
Cn1c(C(F)(F)F)cc(=O)n(-c2cc(Oc3cccnc3OCC(=O)O)c(Cl)cc2F)c1=O	–	beagle dog, female, plasma	oral capsule, 300 mg/kg/day epyrifenacil, day 1, 90-day study	–	Tmax	9 h
Cc1ccc(Sc2ccccc2N2CCNCC2)c(C)c1	item: thermal burn	healthy adult men	oral, 5 mg daily, 12 days	–	participants with TEAE	0%
Cc1nc2cccc(OCC(C)(C)C(=O)NC(C)C)c2c(N)c1C(=O)O	–	Sprague-Dawley rat, male, plasma	oral, 10 mg/kg, day 7 over day 1, 7-day repeated dosing	baseline: day 7 over day 1	Cmax ratio	1.26 ± 0.42
CCN1/C(=C/C(C)=O)Sc2ccc(F)cc21	–	cynomolgus monkey	oral, 10 mg/kg, 0.5 h post-dose	baseline: pre-dose	diastolic blood pressure change	105 ± 7.8%
CCc1cc(C(=O)NC)c2nccc(N3CCc4c(cc(Cn5ccnc5)cc4-c4cn(C)nc4C(F)(F)F)C3=O)c2c1	–	Sprague Dawley rats	oral, 100 mg/kg twice daily, 7 days	baseline: vehicle	serum MCHC change	2.59%
O=C(CCCN1CCC(O)(c2ccc(Cl)cc2)CC1)c1ccc(F)cc1	–	male Hartley guinea pigs, anaesthetized	intravenous, 1 mg/kg group, baseline before infusion	–	mean blood pressure	34 ± 0.1 mmHg
Cc1ccc([C@@H]2O[C@H](CO)[C@@H](O)[C@H](O)[C@H]2O)cc1Cc1ccc(-c2ccc(F)cc2)s1	–	Japanese type 2 diabetes patients	25 mg, day 2, 24 h urine collection	baseline: baseline	urinary chloride excretion change	-54 mEq
CC(C)(C)NCC(O)c1cc(O)cc(O)c1 (stereo not shown)	equilibrium dialysis	dog, plasma	–	–	fraction unbound	0.9
O=C(Nc1nc2cccc(-c3ccc(CN4CCS(=O)(=O)CC4)cc3)n2n1)C1CC1	item: asthenia	human rheumatoid arthritis patients	oral, 75 mg once daily, 4 weeks, regardless of relatedness	–	treatment-emergent adverse events	0%
CCOC(=O)/C(C#N)=C(\O)c1ccc(NC(=O)c2cccs2)cc1	–	sheep erythrocytes	1 h, pH 7.5	–	maximum haemolysis	7.04%
CNCc1ccc(-c2[nH]c3cc(F)cc4c3c2CCNC4=O)cc1	–	patients	oral, 600 mg twice daily, grade 2	–	constipation incidence	0%
O=C(O)CCC(=O)O.[2H]C([2H])([2H])Oc1cc(C)c2[nH]ccc2c1CN1CC[C@@H](C2CC2)C[C@H]1c1ccc(C(=O)O)cc1	–	healthy Chinese subjects	300 mg once daily, multiple ascending dose	–	subjects with drug-related TEAE	25%
COc1cccc(OC)c1-c1cc(C(=O)NC2(C(=O)O)C3CC4CC(C3)CC2C4)nn1-c1ccc(C(=O)N(C)CCCN(C)CCCN(C)C(=O)CN2CCN(CC(=O)[O-])CCN(CC(=O)[O-])CCN(CC(=O)[O-])CC2)cc1C(C)C.[177Lu+3] (stereo not shown)	–	mouse, HT-29 xenograft, HT-29 tumour	4 h post injection	–	tissue uptake	20.8 %ID/g
CCOc1ccc(N(C)S(=O)(=O)c2cc(Cl)sc2C(=O)Nc2cc(Cl)cc(C(=O)O)c2)cc1OC	–	male C57BL/6 mice, brain	intraperitoneal, 10 mg/kg	–	AUC extrapolated fraction	8.96%
NC(=O)N1c2ccccc2C=Cc2ccccc21	–	human, serum	concentration not given	–	ALT	≤ 112 U/L
O=C(NC1CCCCC1)c1ncccc1O	–	–	–	–	pKa (acidic)	7.8
C[C@@H](O)CCOC(=O)C[C@@H](C)O	–	human	oral drink, dose not given, 120 min post dose, mean	–	mean arterial pressure	79 mmHg
CC(C)OC(=O)[C@@H](C)N[P@@](=O)(OC[C@H]1O[C@@H](n2ccc(=O)[nH]c2=O)[C@](C)(Cl)[C@@H]1O)Oc1ccccc1	–	human	oral, dose not given, added: itraconazole	baseline: compound alone	intestinal clearance decrease	55.6%
CC[C@H](C)[C@H](NC(=O)CN)C(=O)N[C@@H](CC(C)C)C(=O)N[C@@H](CC(=O)O)C(=O)N[C@@H](C)C(=O)N[C@H](C(=O)N[C@@H](CCCCN)C(=O)N[C@@H](C)C(=O)N[C@H](C(=O)N[C@@H](C)C(=O)N[C@@H](CCCCN)C(=O)N[C@@H](C)C(=O)N[C@@H](C)C(=O)NCC(N)=O)[C@@H](C)CC)[C@@H](C)CC	circular dichroism at 222 nm	30% TFE	100 µM	–	mean residue ellipticity	-7090 deg cm2/dmol
CCCc1c(-c2ccc(O)cc2)nn(-c2ccc(O)cc2)c1-c1ccc(O)cc1	–	rat, Long-Evans, female, serum	subcutaneous, 2 mg/kg single dose	–	aglycone share of AUC(0-inf)	69%
NC(=O)C(CCCCNC(=O)CN1CCN(CC(=O)[O-])CCN(CC(=O)[O-])CCN(CC(=O)[O-])CC1)NC(=O)OCC1c2ccccc2-c2ccccc21.[Gd+3] (stereo not shown)	–	fetal bovine serum	20 °C, 1.0 T, non-self-assembled	–	relaxivity r1	8.8 ± 0.2 mM⁻¹ s⁻¹
C[C@@H]1COCCN1c1cc(C2([S@](C)(=N)=O)CC2)nc(-c2cc[nH]c3nccc2-3)n1	–	Japanese advanced solid tumour patients	oral, 240 mg twice daily, any grade	–	Constipation incidence	33.3%
COc1c(N2C[C@@H]3CCCN[C@@H]3C2)c(F)cc2c(=O)c(C(=O)O)cn(C3CC3)c12	–	male Hartley guinea pigs, anaesthetized	intravenous, 10 mg/kg group, baseline before infusion	–	mean blood pressure	36 ± 0.2 mmHg
NC1(C(=O)N[C@@H](CCO)c2ccc(Cl)cc2)CCN(c2nc[nH]c3nccc2-3)CC1	–	metastatic CRPC patients	400 mg b.i.d., grade 3 to 4, treatment-related, added: enzalutamide 160 mg daily	–	incidence of Diarrhoea	0%
